Measured values from different studies.
Each line is one published result; not all experiments were run side by side. Numbers after ± are the reported error.
CYP2C8: Cytochrome P450 2C8 (CYP2C8, Homo sapiens, UniProt P10632)
Chain of UniProt P10632 (whole entry, looked up): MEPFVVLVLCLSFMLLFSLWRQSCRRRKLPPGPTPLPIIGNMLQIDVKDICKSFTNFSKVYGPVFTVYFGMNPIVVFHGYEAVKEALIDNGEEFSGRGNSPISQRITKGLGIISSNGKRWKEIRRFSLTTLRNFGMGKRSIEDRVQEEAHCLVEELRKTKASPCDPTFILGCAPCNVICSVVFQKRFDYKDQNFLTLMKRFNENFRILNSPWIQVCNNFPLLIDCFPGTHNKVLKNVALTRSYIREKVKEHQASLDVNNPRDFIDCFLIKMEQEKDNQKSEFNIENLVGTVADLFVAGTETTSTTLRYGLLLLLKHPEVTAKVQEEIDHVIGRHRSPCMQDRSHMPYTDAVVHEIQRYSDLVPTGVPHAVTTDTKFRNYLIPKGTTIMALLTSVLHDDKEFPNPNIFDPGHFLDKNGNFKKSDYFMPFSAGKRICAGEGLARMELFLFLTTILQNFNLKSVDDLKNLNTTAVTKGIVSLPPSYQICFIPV
ABCB1: ATP-dependent translocase ABCB1 (ABCB1, Homo sapiens, UniProt P08183)
Chain of UniProt P08183 (whole entry, looked up): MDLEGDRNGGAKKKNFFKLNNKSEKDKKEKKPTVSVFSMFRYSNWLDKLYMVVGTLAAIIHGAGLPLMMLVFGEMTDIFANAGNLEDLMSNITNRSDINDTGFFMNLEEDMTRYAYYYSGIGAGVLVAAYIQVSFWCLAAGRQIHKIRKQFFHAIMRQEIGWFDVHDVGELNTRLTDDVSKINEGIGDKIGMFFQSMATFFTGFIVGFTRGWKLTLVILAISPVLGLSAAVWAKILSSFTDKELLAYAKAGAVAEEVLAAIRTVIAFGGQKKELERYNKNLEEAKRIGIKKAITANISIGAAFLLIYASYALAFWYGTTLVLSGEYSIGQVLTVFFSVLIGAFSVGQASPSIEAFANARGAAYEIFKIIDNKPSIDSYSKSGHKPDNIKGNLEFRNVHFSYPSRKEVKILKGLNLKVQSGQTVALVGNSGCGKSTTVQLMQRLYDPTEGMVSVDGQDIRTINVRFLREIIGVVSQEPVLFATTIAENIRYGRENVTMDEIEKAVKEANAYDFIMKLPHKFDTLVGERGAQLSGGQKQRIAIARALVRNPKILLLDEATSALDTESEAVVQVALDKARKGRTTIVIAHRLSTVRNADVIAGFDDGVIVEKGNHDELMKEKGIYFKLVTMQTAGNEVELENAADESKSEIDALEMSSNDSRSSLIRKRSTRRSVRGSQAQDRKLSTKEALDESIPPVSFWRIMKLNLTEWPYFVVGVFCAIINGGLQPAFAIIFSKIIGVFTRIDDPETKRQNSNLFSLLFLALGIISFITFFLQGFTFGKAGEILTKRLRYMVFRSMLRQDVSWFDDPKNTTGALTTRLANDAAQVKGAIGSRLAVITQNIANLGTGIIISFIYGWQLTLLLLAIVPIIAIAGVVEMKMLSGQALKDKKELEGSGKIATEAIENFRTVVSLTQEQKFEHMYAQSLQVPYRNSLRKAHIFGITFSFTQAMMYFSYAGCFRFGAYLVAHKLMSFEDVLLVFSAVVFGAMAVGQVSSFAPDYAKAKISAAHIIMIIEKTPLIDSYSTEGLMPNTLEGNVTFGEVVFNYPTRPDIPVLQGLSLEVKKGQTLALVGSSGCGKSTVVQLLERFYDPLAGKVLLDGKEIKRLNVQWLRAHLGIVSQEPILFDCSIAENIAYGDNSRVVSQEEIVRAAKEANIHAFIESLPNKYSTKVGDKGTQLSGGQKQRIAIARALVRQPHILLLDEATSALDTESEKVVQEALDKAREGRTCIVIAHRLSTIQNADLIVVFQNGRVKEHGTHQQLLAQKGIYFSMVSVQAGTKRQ
Chain of UniProt Q9UNU6 (whole entry, unmodified, looked up): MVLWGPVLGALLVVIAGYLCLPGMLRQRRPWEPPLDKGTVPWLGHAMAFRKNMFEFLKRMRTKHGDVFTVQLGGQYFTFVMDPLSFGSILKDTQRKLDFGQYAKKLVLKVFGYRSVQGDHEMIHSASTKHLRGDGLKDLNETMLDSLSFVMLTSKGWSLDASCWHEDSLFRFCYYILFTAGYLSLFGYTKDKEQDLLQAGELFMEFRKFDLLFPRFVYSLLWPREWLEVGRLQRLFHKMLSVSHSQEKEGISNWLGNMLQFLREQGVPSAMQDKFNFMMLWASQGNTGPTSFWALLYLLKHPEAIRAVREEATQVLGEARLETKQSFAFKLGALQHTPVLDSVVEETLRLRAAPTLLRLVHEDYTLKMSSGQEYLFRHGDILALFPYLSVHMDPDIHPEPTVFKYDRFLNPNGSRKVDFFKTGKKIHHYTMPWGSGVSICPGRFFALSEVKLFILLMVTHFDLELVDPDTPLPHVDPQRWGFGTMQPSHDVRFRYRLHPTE
Chain of UniProt P04798 (whole entry, looked up): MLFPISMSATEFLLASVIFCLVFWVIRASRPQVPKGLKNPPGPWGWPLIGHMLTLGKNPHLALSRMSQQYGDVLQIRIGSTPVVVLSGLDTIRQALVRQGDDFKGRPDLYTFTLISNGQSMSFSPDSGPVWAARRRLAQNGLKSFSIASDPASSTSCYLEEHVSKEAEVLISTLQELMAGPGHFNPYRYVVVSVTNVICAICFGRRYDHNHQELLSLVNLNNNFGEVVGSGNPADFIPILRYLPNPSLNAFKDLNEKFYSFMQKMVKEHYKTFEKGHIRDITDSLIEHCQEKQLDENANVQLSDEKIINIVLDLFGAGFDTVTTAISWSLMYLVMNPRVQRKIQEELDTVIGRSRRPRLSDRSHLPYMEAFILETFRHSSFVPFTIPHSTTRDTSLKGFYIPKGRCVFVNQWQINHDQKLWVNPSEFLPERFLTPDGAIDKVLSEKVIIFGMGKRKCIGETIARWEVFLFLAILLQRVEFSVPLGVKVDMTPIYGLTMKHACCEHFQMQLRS
Chain of UniProt Q12809 (whole entry, looked up): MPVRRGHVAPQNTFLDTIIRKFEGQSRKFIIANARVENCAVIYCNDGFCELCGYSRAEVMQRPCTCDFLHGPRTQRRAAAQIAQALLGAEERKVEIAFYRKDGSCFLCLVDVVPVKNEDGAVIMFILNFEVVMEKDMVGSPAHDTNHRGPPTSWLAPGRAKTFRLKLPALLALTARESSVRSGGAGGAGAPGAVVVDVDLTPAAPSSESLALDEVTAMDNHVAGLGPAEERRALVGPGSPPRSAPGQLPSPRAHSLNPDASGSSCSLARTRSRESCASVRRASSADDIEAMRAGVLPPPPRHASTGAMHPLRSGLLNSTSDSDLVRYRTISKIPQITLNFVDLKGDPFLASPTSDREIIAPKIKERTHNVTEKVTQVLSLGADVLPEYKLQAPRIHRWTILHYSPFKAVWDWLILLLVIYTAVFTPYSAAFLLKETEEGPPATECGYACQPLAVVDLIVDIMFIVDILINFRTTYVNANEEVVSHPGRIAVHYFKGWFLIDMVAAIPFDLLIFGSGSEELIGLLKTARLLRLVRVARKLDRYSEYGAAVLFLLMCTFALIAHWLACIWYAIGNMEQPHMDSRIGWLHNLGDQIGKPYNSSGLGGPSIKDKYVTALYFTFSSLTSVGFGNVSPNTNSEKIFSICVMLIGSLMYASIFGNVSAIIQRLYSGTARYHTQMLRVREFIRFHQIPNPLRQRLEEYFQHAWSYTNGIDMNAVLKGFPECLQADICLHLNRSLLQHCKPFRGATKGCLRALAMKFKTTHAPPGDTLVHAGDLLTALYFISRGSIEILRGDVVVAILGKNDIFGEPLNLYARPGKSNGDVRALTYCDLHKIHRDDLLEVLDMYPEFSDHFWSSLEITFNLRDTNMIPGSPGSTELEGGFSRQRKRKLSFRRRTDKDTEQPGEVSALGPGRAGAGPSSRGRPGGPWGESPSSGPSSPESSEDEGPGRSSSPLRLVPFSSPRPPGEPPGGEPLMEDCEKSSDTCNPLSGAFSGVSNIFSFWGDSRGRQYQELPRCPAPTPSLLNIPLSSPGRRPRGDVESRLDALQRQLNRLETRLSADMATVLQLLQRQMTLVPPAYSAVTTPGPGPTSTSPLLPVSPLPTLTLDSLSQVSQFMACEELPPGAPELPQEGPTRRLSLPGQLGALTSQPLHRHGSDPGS
Chain of UniProt P50226 (whole entry, looked up): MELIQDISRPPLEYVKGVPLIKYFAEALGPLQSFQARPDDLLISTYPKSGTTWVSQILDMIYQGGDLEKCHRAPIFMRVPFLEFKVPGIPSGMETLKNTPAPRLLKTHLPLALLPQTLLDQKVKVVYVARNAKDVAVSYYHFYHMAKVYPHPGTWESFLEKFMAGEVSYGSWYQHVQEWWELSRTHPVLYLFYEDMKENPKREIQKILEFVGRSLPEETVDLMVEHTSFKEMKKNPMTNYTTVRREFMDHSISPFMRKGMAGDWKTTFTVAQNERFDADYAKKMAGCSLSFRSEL
Chain of UniProt Q96JM7 (whole entry, looked up): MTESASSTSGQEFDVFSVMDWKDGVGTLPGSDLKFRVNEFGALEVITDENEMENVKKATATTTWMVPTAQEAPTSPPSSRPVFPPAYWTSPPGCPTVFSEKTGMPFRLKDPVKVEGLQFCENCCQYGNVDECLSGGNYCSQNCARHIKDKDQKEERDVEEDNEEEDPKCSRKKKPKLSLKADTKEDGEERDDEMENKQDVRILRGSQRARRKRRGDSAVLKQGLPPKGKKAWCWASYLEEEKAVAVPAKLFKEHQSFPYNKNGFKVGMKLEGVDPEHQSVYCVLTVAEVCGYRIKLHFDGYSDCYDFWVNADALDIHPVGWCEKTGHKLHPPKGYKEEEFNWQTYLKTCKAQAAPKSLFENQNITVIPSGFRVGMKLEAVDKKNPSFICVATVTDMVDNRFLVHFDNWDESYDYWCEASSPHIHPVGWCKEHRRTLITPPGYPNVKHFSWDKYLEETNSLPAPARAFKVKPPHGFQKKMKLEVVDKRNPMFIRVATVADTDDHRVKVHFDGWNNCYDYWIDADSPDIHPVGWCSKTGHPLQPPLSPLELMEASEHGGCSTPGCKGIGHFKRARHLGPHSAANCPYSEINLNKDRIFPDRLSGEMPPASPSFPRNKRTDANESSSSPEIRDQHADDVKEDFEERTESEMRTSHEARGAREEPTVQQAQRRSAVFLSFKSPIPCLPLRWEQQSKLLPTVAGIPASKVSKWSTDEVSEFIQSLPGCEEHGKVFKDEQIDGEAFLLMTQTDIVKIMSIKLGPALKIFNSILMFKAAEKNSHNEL

| Structure (SMILES) | tested on | test | test system | conditions | scale | measurement | value |
| --- | --- | --- | --- | --- | --- | --- | --- |
| CC(=O)OC[C@H]1O[C@@H]([S-])[C@H](OC(C)=O)[C@@H](OC(C)=O)[C@@H]1OC(C)=O.CCP(CC)CC.[Au+] | Toxoplasma gondii | parasite growth | HFF, bradyzoite, glutamine-induced |  |  | EC90 | 1.46 µM |
| Cc1cc(Nc2ccc(S(F)(F)(F)(F)F)cc2)n2nc(C(C)(F)F)nc2n1 | Plasmodium falciparum | LC-MS/MS | malaria patients, plasma | oral, 400 mg |  | Cmax | 7030 ng/mL |
| Cn1cc(-c2ccc(-c3cncc(Cl)c3N3CCC4(CCNC4=O)CC3)cc2)cn1 | COLO 205 | gene expression, microarray, refers to: FHL2 mRNA |  | concentration not given, 2 h | reference: untreated cells | log2 fold change | 2.28 |
| CC(C)CCC[C@@H](C)[C@H]1CC[C@H]2[C@@H]3[C@H](O)CC4=CC(=O)CC[C@]4(C)[C@H]3CC[C@]12C | 7-alpha-hydroxycholest-4-en-3-one 12-alpha-hydroxylase (Homo sapiens, UniProt Q9UNU6, W281F) | binding, Soret peak shift |  |  |  | maximal absorbance change | 0.00462 |
| O=C1C(O)=C([C@H]2CC[C@H](c3ccc(Cl)cc3)CC2)C(=O)c2ccccc21 | Toxoplasma gondii | ex vivo bradyzoite plaques | ME49 | 3 times EC90, continuous exposure |  | inhibition | inhibited |
| Cc1cc(Nc2ncnc3ccc(NC4=NC(C)(CO)CO4)cc23)ccc1Oc1ccn2ncnc2c1 (stereo not shown) | CYP2C8 |  | human, plasma | oral, 300 mg tucatinib single dose, day 1, median |  | Tmax | 2 h |
| CC[C@H](C)[C@H](NC(=O)[C@@H]1CCC(=O)NCCCC[C@H](NC(=O)[C@@H](N)CC(=O)O)C(=O)N[C@@H](CCCNC(=N)N)C(=O)N[C@@H](CC(N)=O)C(=O)N[C@@H]([C@@H](C)CC)C(=O)N[C@@H](Cc2ccccc2)C(=O)N[C@@H](CC(C)C)C(=O)N1)C(=O)N[C@@H](CCCCN)C(=O)N[C@@H](Cc1ccccc1)C(=O)N[C@@H](CCCCN)C(=O)N[C@@H](CCCCN)C(=O)N[C@@H](CCCCN)C(=O)O | trypsin | stability |  | 0.33 mM, pH 7.4 |  | half-life | > 24 h |
| CC[C@@H]([C@H](C)O)n1ncn(-c2ccc(N3CCN(c4ccc(OC[C@@H]5CO[C@@](Cn6cncn6)(c6ccc(F)cc6F)C5)cc4)CC3)cc2)c1=O | lenvatinib metabolism | inhibitor | rat liver microsomes | 30 min, pH 7.4, added: lenvatinib substrate |  | IC50 | 2.4 µM |
| CC[C@H]1[C@@H](O)[C@@H]2[C@H](CC[C@]3(C)[C@@H]([C@H](C)CCNC(=O)NS(=O)(=O)c4ccc(C(C)(C)C)cc4)CC[C@@H]23)[C@@]2(C)CC[C@@H](O)C[C@@H]12 | ABCB1 |  | human, plasma | dose not given, mean, added: quinidine |  | Vd/F | 239 L |
| CCc1nc(N)nc(N)c1-c1ccc(Cl)cc1 | human MATE1/MATE2-K | inhibitor, refers to: N1-methyladenosine renal clearance | human, plasma | oral, from plasma Cmax |  | Ki | 3.84 ± 2.64 µM |
| Cc1cc(Nc2ncnc3ccc(NC4=NC(C)(C)CO4)cc23)ccc1Oc1ccn2ncnc2c1 | CYP2C8 | substrate | human, plasma | oral, 300 mg single dose, day 1 |  | geometric mean AUC(0-last) | 2240 ng·h/mL |
| CNC(=O)c1ccc(-c2cnc3ncc(Cc4ccc5ncccc5c4)n3n2)cc1F |  | CTCAE v4.0, any causality | human gastric cancer patients | oral, 600 mg twice daily, expansion cohort at RP2D |  | alkaline phosphatase increase incidence (all grades) | 0% |
| CCOc1cc(CC(=O)N[C@@H](CC(C)C)c2ccccc2N2CCCCC2)ccc1C(=O)O | CYP2C8 |  | human, plasma | 0.5 mg, day 1, arithmetic mean |  | AUC(0-last) | 11.1 ng·h/mL |
| CC(C)=CCc1c(O)cc(O)c2c1O[C@H](c1ccc(O)cc1)CC2=O | CYP2C8 |  |  | 10 µM, pH 7.4 |  | inhibition | 97.6 ± 0.1% |
| c1c[nH]cn1 | 7-alpha-hydroxycholest-4-en-3-one 12-alpha-hydroxylase (Homo sapiens, UniProt Q9UNU6) | binding |  |  |  | Kd | 878 µM |
| CC[C@H](C)[C@H](NC(=O)[C@H](Cc1ccc(O)cc1)NC(=O)[C@@H](NC(=O)[C@@H](N)CCCN=C(N)N)C(C)C)C(=O)N[C@@H](Cc1c[nH]cn1)C(=O)N1CCC[C@H]1C(=O)N[C@@H](Cc1ccccc1)C(=O)O | trypsin | LC-MS |  | 20 µM, 60 min, pH 7.4, 25 °C |  | proteolytic conversion | 78.2 ± 2.8% |
| CC(C)=CCc1cc2c(cc1O)O[C@H](c1ccc(O)cc1)CC2=O | Cytochrome P450 1A1 (CYP1A1, Homo sapiens, UniProt P04798) | phase I metabolism, substrate | recombinant enzyme | pH 7.4 |  | CLint | 209 µL/min/mg |
| C[C@H]1CNC(=O)c2cnn3ccc(nc23)N[C@H](C)c2cc(F)ccc2O1 | CD74-ROS1 (CD74/ROS1, Homo sapiens, UniProt P04233+P08922, G2032R) |  | Balb/c nude mice, intracranial CD74-ROS1 xenograft | oral, 15 mg/kg twice daily, mean |  | body weight loss | 8% |
| Cc1oc2ccccc2c1Cc1cc(I)c(OCC(=O)O)c(I)c1 | Voltage-gated inwardly rectifying potassium channel KCNH2 (KCNH2, Homo sapiens, UniProt Q12809) | ion current, whole-cell patch clamp | HEK293 expressing hERG1 | 10 µM, K+ 10 mM | reference: untreated | deactivation time constant reduction | < 3 fold |
| O=C(c1ccc(C(=O)N2CCC(N3CCCC3)CC2)c(Nc2ccccc2)c1)N1CCC(N2CCCC2)CC1 | Lethal(3)malignant brain tumor-like protein 3 (Homo sapiens, UniProt Q96JM7) | FRAP | human cells | 0.1 µM |  | FRAP recovery half-time | 20.1 s |
| C[C@@H](c1ncncc1F)[C@](O)(Cn1cncn1)c1ccc(F)cc1F | lenvatinib metabolism | inhibitor | rat liver microsomes | 30 min, pH 7.4, added: lenvatinib substrate |  | IC50 | 1.3 µM |
| COc1cc2c(CCNC(C)=O)c[nH]c2cc1O | Sulfotransferase 1A2 (Homo sapiens, UniProt P50226) | substrate | purified recombinant enzyme | 10 µM, 10 min, pH 7.0, 37 °C |  | specific activity | 1.33 ± 0.04 nmol/min/mg |
| C[C@@H](c1nc(-c2ccc(C#N)cc2)cs1)[C@](O)(Cn1cncn1)c1cc(F)ccc1F | lenvatinib metabolism | inhibitor | human liver microsomes | 30 min, pH 7.4, added: lenvatinib substrate |  | IC50 | 3.62 µM |
| Cn1c(=O)c2c(ncn2C)n(C)c1=O | Cytochrome P450 1A2 (CYP1A2, Homo sapiens, UniProt P05177) |  | human, plasma | oral, 200 mg, day 1, alone, geometric mean |  | CL/F | 6.32 L/h |
| CC1(C)CCC2(CC1)N[C@@H](C(=O)N[C@@H]1CC[C@@H](C(N)=O)OC1)[C@H](c1ccnc(Cl)c1F)[C@]21C(=O)Nc2cc(Cl)ccc21 | ABCB1 |  | Caco-2 monolayers | 3 µM, 120 min, no inhibitor |  | Papp A to B | 1.24 ×10⁻⁶ cm/s |

For quick reference, copied from above:
| Structure (SMILES) | tested on | test | test system | conditions | scale | measurement | value |
| --- | --- | --- | --- | --- | --- | --- | --- |
| CC(C)=CCc1cc2c(cc1O)O[C@H](c1ccc(O)cc1)CC2=O | Cytochrome P450 1A1 (CYP1A1, Homo sapiens, UniProt P04798) | phase I metabolism, substrate | recombinant enzyme | pH 7.4 |  | CLint | 209 µL/min/mg |
| Cn1cc(-c2ccc(-c3cncc(Cl)c3N3CCC4(CCNC4=O)CC3)cc2)cn1 | COLO 205 | gene expression, microarray, refers to: FHL2 mRNA |  | concentration not given, 2 h | reference: untreated cells | log2 fold change | 2.28 |
| CCc1nc(N)nc(N)c1-c1ccc(Cl)cc1 | human MATE1/MATE2-K | inhibitor, refers to: N1-methyladenosine renal clearance | human, plasma | oral, from plasma Cmax |  | Ki | 3.84 ± 2.64 µM |
